Assay results from different studies.
Compare with care: the assays were run in different laboratories. Numbers after ± are the reported error.

SMILES | assay | system | conditions | how to read | measurement | value
O=C([O-])CN1CCN(CC(=O)[O-])CC(Cc2ccc(NC(=S)NCCOCCOCCOCCOCCOCCOCCOCCNC(=O)CCCC(=O)NCc3ccc(-c4nncnn4)cc3)cc2)N(CC(=O)[O-])CC1.[64Cu+2] (centres unmarked) |  | human serum | 4 h, 37 °C |  | intact compound | 77.8 ± 3.5%
O=C(NCC1OC2CCC=CCCC2O1)c1ccc(COCCOCCOCC[18F])cc1 (centres unmarked) |  | mouse plasma | 2 h, 37 °C |  | intact tracer remaining | 86 ± 1.61%
O=C([O-])CN1CCN(CC(=O)[O-])CCN(CC(=O)NCC2CCC(C(=O)NC(Cc3ccc4ccccc4c3)C(=O)NCCCCC(NC(=O)NC(CCC(=O)O)C(=O)O)C(=O)O)CC2)CCN(CC(=O)[O-])CC1.[44Sc+3] (centres unmarked) | transchelation stability |  | 2 h, 37 °C, added: DTPA 10 mM |  | intact complex | 97 ± 0.8%
N[C@@H](CSC(F)(F)[18F])C(=O)O |  | PBS | 2 h, pH 7.4, 37 °C |  | intact tracer | > 95%
O=C([O-])CN1CCN(CC(=O)NCCCCCNC(=O)CCC(NC(=O)NC(CCC(=O)O)C(=O)O)C(=O)O)CCN(Cc2cccc(C(=O)[O-])n2)CC1.[64Cu+2] (centres unmarked) | radio-HPLC | PBS | 12 h, room temperature |  | intact complex | 88.5%
C[C@@H](O)[C@@H]1NC(=O)[C@H](CCCCN)NC(=O)[C@@H](Cc2ccc(NC(N)=O)cc2)NC(=O)[C@H](Cc2ccc(NC(=O)[C@@H]3CC(=O)NC(=O)N3)cc2)NC(=O)[C@H](NC(=O)[C@H](Cc2ccc(Cl)cc2)NC(=O)CN2CCN(CC(=O)O)CCN(CC(=O)O)CCN(CC(=O)O)CC2)CSSC[C@@H](C(=O)N[C@H](Cc2ccc(O)cc2)C(N)=O)NC1=O | radio-TLC | mouse serum | 5 d, 37 °C |  | intact radioligand | > 95%
CC(=O)N[C@@H](CCCCN)C(=O)NCCC(=O)N[C@@H](Cc1ccccc1)C(=O)N[C@@H](CO)C(=O)N[C@@H](CO)C(=O)N[C@@H](CCCCN)C(=O)N[C@@H](CO)C(=O)N[C@@H](CCC(=O)O)C(=O)N[C@@H](Cc1ccc(O)cc1)C(=O)N[C@@H](CCC(N)=O)C(=O)N[C@@H](CC(C)C)C(=O)NCCOCCOCC(=O)N[C@@H](Cc1ccccc1)C(=O)N[C@@H](Cc1ccc(O)cc1)C(=O)N[C@@H](Cc1c[nH]c2ccccc12)C(=O)N[C@@H](CO)C(=O)N[C@@H](C)C(=O)N[C@H](C(=O)N[C@H](C(N)=O)[C@@H](C)O)C(C)C | RP-HPLC | 25% fetal bovine serum | 1 mg/mL, 42 h, 37 °C | relative to: initial amount | intact peptide remaining | 60%
Cc1cn(-c2ccc(-c3cc(C)c(N[C@@H](C)c4ccc(F)cc4)nn3)nc2O[11CH3])cn1 |  | male rhesus macaque, arterial plasma | intravenous, 2 mCi, 10 min |  | intact tracer fraction | < 10%
O=C([O-])c1cccc(CN(CCN(Cc2cn(Cc3ccccc3)nn2)Cc2cccc(C(=O)[O-])n2)Cc2cn(Cc3ccccc3)nn2)n1.[67Ga+3] | refers to: 67Ga | mouse serum | 2 h, 25 °C |  | intact radiocomplex | 52%
N[C@@H]1CCCC[C@H]1N.O=C1[O][Pt]2([O]C1=O)[O]C(=O)C(=O)[O]2 |  | water | 24 h, 37 °C, added: sodium ascorbate 15-fold excess |  | intact complex remaining | ~80%
O=C(NCCCN(CCCCN(CCCNC(=O)c1cccc(=O)n1[O-])C(=O)c1cccc(=O)n1[O-])C(=O)c1cccc(=O)n1[O-])c1cccc(=O)n1[O-].[89Zr+4] | radio-TLC | PBS | 1 h, pH 7.4, 37 °C, added: Ga^3+ 10-fold excess |  | intact complex | 98.4 ± 2.3%

Some of these lines once more:
SMILES | assay | system | conditions | how to read | measurement | value
CC(=O)N[C@@H](CCCCN)C(=O)NCCC(=O)N[C@@H](Cc1ccccc1)C(=O)N[C@@H](CO)C(=O)N[C@@H](CO)C(=O)N[C@@H](CCCCN)C(=O)N[C@@H](CO)C(=O)N[C@@H](CCC(=O)O)C(=O)N[C@@H](Cc1ccc(O)cc1)C(=O)N[C@@H](CCC(N)=O)C(=O)N[C@@H](CC(C)C)C(=O)NCCOCCOCC(=O)N[C@@H](Cc1ccccc1)C(=O)N[C@@H](Cc1ccc(O)cc1)C(=O)N[C@@H](Cc1c[nH]c2ccccc12)C(=O)N[C@@H](CO)C(=O)N[C@@H](C)C(=O)N[C@H](C(=O)N[C@H](C(N)=O)[C@@H](C)O)C(C)C | RP-HPLC | 25% fetal bovine serum | 1 mg/mL, 42 h, 37 °C | relative to: initial amount | intact peptide remaining | 60%
